{"data": "Results pooled from the literature", "note": "Numbered parts are unrelated; each lists some results of a single study. “And” joins repeats or separate records; there may be more than shown. Numbers after ± are the reported error.", "chain of UniProt P41145 (whole entry, looked up)": "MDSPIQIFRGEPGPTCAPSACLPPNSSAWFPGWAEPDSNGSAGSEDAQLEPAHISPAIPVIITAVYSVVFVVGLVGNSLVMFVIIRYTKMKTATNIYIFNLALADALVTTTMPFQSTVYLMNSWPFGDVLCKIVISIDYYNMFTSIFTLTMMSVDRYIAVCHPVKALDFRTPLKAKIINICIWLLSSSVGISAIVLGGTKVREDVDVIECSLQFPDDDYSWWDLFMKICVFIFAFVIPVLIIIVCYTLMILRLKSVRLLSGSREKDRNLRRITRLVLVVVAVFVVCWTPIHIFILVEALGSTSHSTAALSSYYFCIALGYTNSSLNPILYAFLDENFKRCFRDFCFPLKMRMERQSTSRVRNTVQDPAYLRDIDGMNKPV"}
{"data": "Series 1", "Compound": "CCCCC[C@@H](O)CC(=O)N[C@@H]1C(=O)N[C@H](CCCNC(=N)N)C(=O)N[C@@H](CO)C(=O)NCC(=O)N(C)[C@H](Cc2ccccc2)C(=O)N[C@@H](CC(C)C)C(=O)N[C@H](CCCNC(=N)N)C(=O)N[C@@H](CCC(=O)O)C(=O)N[C@H](CCC(N)=O)C(=O)N[C@H](Cc2c[nH]c3ccccc23)C(=O)N[C@@H]([C@@H](C)CC)C(=O)N[C@@H]([C@@H](C)O)C(=O)O[C@@H]1C", "organism": "Staphylococcus aureus", "strain": "USA300", "tested at": "2 x MIC"}
{"time": "15 min", "viable cells": "5000 CFU/mL and 4500 CFU/mL and 5500 CFU/mL"}
{"time": "240 min", "viable cells": "100 CFU/mL and 200 CFU/mL"}
{"time": "30 min", "viable cells": "1700 CFU/mL and 1500 CFU/mL and 1400 CFU/mL"}
{"time": "120 min", "viable cells": "600 CFU/mL and 300 CFU/mL and 500 CFU/mL"}
{"time": "180 min", "viable cells": "200 CFU/mL and 300 CFU/mL"}
{"data": "Single results of other studies", "OPRD1 with β-arrestin2": "Delta-type opioid receptor, with β-arrestin2 (OPRD1, Homo sapiens, UniProt P41143)", "chain of UniProt P41143 (whole entry, looked up)": "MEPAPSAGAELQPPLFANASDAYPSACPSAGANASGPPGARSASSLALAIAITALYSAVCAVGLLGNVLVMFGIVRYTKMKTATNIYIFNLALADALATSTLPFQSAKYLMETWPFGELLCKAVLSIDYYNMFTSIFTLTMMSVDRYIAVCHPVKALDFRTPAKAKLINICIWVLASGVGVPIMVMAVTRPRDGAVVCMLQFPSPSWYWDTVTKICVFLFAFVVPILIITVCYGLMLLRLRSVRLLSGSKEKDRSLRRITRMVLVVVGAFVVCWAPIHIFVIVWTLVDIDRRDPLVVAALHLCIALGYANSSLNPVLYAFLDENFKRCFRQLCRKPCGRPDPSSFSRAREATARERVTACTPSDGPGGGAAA"}
{"Structure (SMILES)": "N=C(N)NCCCCCCN1CCC23c4c5ccc(O)c4OC2c2nc4ccccc4cc2CC3(O)C1C5 (stereo not drawn)", "test": "modified Racine scale", "system": "C57BL/6J mice, male", "setting": "intracerebroventricular, 100 nmol, 25 min", "scale": "direction not given", "quantity": "seizure score", "result": 0}
{"Structure (SMILES)": "Cn1cc(-c2cccc(CN3CCC4(CC3)COc3c4ccc4c3CN([C@H]3CCC(=O)NC3=O)C4=O)c2)cn1", "system": "cynomolgus monkey", "setting": "intravenous, 1 mg/kg", "quantity": "clearance", "result": "20.7 mL/min/kg and 19.3 mL/min/kg and 14.2 mL/min/kg"}
{"Structure (SMILES)": "N=C(N)NCCCCCN1CC[C@]23c4c5ccc(O)c4O[C@H]2c2[nH]c4ccccc4c2C[C@@]3(O)[C@H]1C5", "tested on": "Kappa-type opioid receptor, with Gi1 (OPRK1, Homo sapiens, UniProt P41145)", "system": "human cells", "quantity": "Emax", "result": "61 ± 4%"}
{"Structure (SMILES)": "Cc1cc(-c2cnc(N)c3c(-c4ccc5scnc5c4)csc23)n(C)n1", "tested on": "L929", "test": "necroptosis protection, CCK-8", "setting": "0.00229 µM, together with: TNF-α-induced", "quantity": "viability", "result": "14.3%"}
{"Structure (SMILES)": "NC(=O)NCCCCCCN1CCC23c4c5ccc(O)c4OC2c2nc4ccccc4cc2CC3(O)C1C5 (stereo not drawn)", "tested on": "OPRD1 with β-arrestin2", "system": "human cells", "quantity": "Emax", "result": "20 ± 4%"}
{"Structure (SMILES)": "Cc1c(NC(=O)c2cccn(-c3ccc(F)cc3)c2=O)ccc(Oc2ccnc(NC(=O)C3CC3)c2)c1C", "tested on": "L929", "test": "necroptosis protection, CCK-8", "setting": "0.625 µM, together with: TNF-α-induced", "quantity": "viability", "result": "69.9%"}
{"Structure (SMILES)": "CCCCCCCCN1CCC23c4c5ccc(O)c4OC2c2nc4ccccc4cc2CC3(O)C1C5 (stereo not drawn)", "tested on": "OPRD1 with β-arrestin2", "system": "human cells", "quantity": "EC50", "result": "1 µM"}
{"note": "Repeated from above (single results of other studies):"}
{"Structure (SMILES)": "Cc1c(NC(=O)c2cccn(-c3ccc(F)cc3)c2=O)ccc(Oc2ccnc(NC(=O)C3CC3)c2)c1C", "tested on": "L929", "test": "necroptosis protection, CCK-8", "setting": "0.625 µM, together with: TNF-α-induced", "quantity": "viability", "result": "69.9%"}
{"Structure (SMILES)": "CCCCCCCCN1CCC23c4c5ccc(O)c4OC2c2nc4ccccc4cc2CC3(O)C1C5 (stereo not drawn)", "tested on": "OPRD1 with β-arrestin2", "system": "human cells", "quantity": "EC50", "result": "1 µM"}
